Assay results of several laboratories.
Lines come from different studies, so protocols differ. ± gives the spread as reported.

Under “grade ≥3 adverse events”, CC(C)n1c(C2CCNCC2)nc2c([N+](=O)[O-])c(Br)c(Br)cc21 is recorded as 14% (refers to: Asthenia; AML patients; dose not given, all doses).
With C[C@@H]1NC(=O)[C@H](CCCCNC(=O)CO/N=C/C(=O)NCCCC[C@@H]2NC(=O)[C@@H](Cc3ccccc3)NC(=O)[C@H](CC(=O)O)NC(=O)CNC(=O)[C@H](CCCNC(=N)N)NC2=O)NC(=O)CNC(=O)[C@@H]2CCCN2C(=O)[C@H](CCCCNC(=O)CO/N=C/C(=O)NCCCC[C@@H]2NC(=O)[C@@H](Cc3ccccc3)NC(=O)[C@H](CC(=O)O)NC(=O)CNC(=O)[C@H](CCCNC(=N)N)NC2=O)NC(=O)[C@H](CCCCNC(=O)[C@H](CCCCN)NC(=O)[C@H](Cc2ccccc2)NC(=O)CNC(=O)CN2CCCNCCNCCCNCC2)NC(=O)[C@H](CCCCNC(=O)CO/N=C/C(=O)NCCCC[C@@H]2NC(=O)[C@@H](Cc3ccccc3)NC(=O)[C@H](CC(=O)O)NC(=O)CNC(=O)[C@H](CCCNC(=N)N)NC2=O)NC(=O)CNC(=O)[C@@H]2CCCN2C(=O)[C@H](CCCCNC(=O)CO/N=C/C(=O)NCCCC[C@@H]2NC(=O)[C@@H](Cc3ccccc3)NC(=O)[C@H](CC(=O)O)NC(=O)CNC(=O)[C@H](CCCNC(=N)N)NC2=O)NC1=O [copper-64 labelled] the tissue uptake was 1.1 ± 0.13 %ID/g (normal mice, heart; intravenous, 0.74 MBq, 24 h post-injection).
For COc1ccc([C@@H]2CC(=O)c3c(O)cc(O)cc3O2)cc1O, “urinary excreted amount, total” read 4790 ± 1600 ng (male Sprague-Dawley rat, lean; oral, 100 mg/kg of neohesperidin, 12 to 24 h, after β-glucuronidase/sulfatase hydrolysis).
O=C(O)CNCP(=O)(O)O — result for “milk fat partition ratio”: 0.19 (cow whole milk; 200 nM; baseline: milk fat over skim milk).
C[C@@H](NC(=O)N1C(=O)[C@H](Cc2ccnc(N)c2)[C@H]1C(=O)O)C1CCCCC1 — result for “urine leukocyte positive”: 2.5% (healthy Chinese adult volunteers; continuous intravenous infusion, dose not given, 5.0 days, CTCAE 5.0, all doses).
C[C@@H]1OC(=O)NN=C1c1ccc(-c2ccc(F)cc2)c(C(F)(F)F)c1: “patients with TEAE” 100% (phase I trial, refers to: non-cardiac chest pain; human patients; 10 mg load, 0.5 mg daily, worst grade 1).
CCc1ccc(CC/C=C/c2ccc3c(c2)C(=O)CC3)cc1 — result for “AST serum activity”: 125 U/L (Sprague-Dawley rat, male; oral, 450 mg/kg/day, 14 days).
With COC[C@@]12CC[C@H](OC)[C@]34C(C([C@H](OC)[C@H]13)[C@]1(OC(C)=O)[C@H]3[C@@H](OC(=O)c5ccccc5)[C@](O)(C[C@H]34)[C@@H](OC)[C@@H]1O)N(C)C2 the MRT(0-t) was 1.78 ± 0.155 h (Sprague-Dawley rat, plasma; oral, dose not given, with NADES in PCW extract).
The Vcm/F of N#CCNC(=O)c1ccc(-c2ccnc(Nc3ccc(N4CCOCC4=O)cc3)n2)cc1 is reported as 2.77 L (population PK model, NONMEM; human; metabolite of momelotinib, typical value, final model).
CN1CC[C@@H](c2c(O)cc(O)c3c(=O)cc(-c4ccc(C(F)(F)F)cc4Cl)oc23)[C@@H]1CO: “patients with adverse event” 0% (refers to: Hypertension; B-cell malignancies; oral, 200 mg, intermittent dosing).
Under “Cmax at steady state”, C[C@]1(CO)Cc2ncn(-c3ccc(C#N)c(Cl)c3)c2C(=O)O1 is recorded as 5.18 µM (healthy Japanese adults, plasma; 80 mg once daily, multiple dose).
COc1cc2c(Oc3ccc4[nH]c(C)cc4c3F)ccnc2cc1OCC1(N)CC1 — result for “grade 1 or 2 Hyperuricemia”: 0% (paediatric recurrent refractory sarcoma; 8 mg).
CO[C@H]1C[C@@H]2CC[C@@H](C)[C@@](O)(O2)C(=O)C(=O)N2CCCC[C@H]2C(=O)O[C@H]([C@H](C)C[C@@H]2CC[C@@H](OC(=O)NCCOCCOCCOCCOCCOCCOCCOCCOCCC(=O)N3CCc4cc(Cn5nc(-c6ccc7oc(N)nc7c6)c6c(N)ncnc65)ccc4C3)[C@H](OC)C2)C[C@@H](O)[C@H](C)/C=C(\C)[C@@H](O)[C@@H](OC)C(=O)[C@H](C)C[C@H](C)/C=C/C=C/C=C/1C gave a diarrhoea incidence of 25% (patients with advanced solid tumours; intravenous, 12 mg weekly, any grade).
